Experimental data from different studies.
± gives the spread as reported. In brackets after ≈: the same amount, converted by molar mass.
rep main protease: Replicase polyprotein 1ab, main protease (rep, Severe acute respiratory syndrome coronavirus 2, UniProt P0DTD1)

Molecule | tested on | assay | test system | conditions | endpoint | result
CC1CCCN(CCCNC(=O)c2cc(Sc3ccc(F)cc3)nc3ccccc23)C1 (stereo not drawn) | SARS-CoV-2 | cytopathic effect | USA_WA1/2020 | retest 8-point | maximum response | 92.9%
Nc1ncnc2c([C@@H]3N[C@H](CO)[C@@H](O)[C@H]3O)c[nH]c12 | Marburg virus | viral replication, antibody staining | HeLa, Musoke | 25 µM, 1 h | infected cells | 0.8%
O=C(NC1CN2CCC1CC2)c1cc(Cl)cc2c1OC1CCCCC21 (stereo not drawn) | SARS-CoV-2 | viral replication, GFP plate reader screen | BetaCov/Belgium/GHB-03021/2020 | cell-based | EC50 | 7.94 µM
O=C(Nc1ccc(N2CCN(C(=O)c3cnccn3)CC2)nc1)c1ccccc1I | Mycobacterium tuberculosis | bacterial growth | H37Ra-lux | 168 h | IC90 | > 64 µM
CC(C)Oc1cccc2c1c(NC(=O)c1ccn(C)c(=O)c1)nn2-c1ccc(F)cc1 | Lassa mammarenavirus | viral replication | Huh-7 | 10 µM, 72 h | remaining activity | 13%
CC(C)(C)N1CCC(c2ccccc2)(c2ccccc2)CC1 | SARS-CoV-2 | cytopathic effect | USA_WA1/2020 | round 1, 5-point | efficacy | 50.4%
O=C(N[C@H]1CN2CCC1CC2)c1cc2cccc(Cl)c2s1 | SARS-CoV-2 | viral replication, high-content imaging screen | BetaCov/Belgium/GHB-03021/2020 | cell-based | EC50 | > 100 µM
Cc1cccn2c(=O)c3cc(C(=O)Nc4ccc(N(C)C)cc4)n(C)c3nc12 | Severe acute respiratory syndrome coronavirus 2 | viral replication, inhibitor, qPCR | Vero C1008 | – | EC90 | 3.8 µM
CCN(CC)CCCNc1cc(OC)cc2cccnc12 | SARS-CoV-2 | viral replication, high-content imaging screen | BetaCov/Belgium/GHB-03021/2020 | cell-based | EC50 | > 100 µM
CNC(=O)[C@@H](NC(=O)[C@H](CC(C)C)[C@H](O)C(=O)NO)C(C)(C)C | Daboia russelii | – | North population, mouse | 120 µg, venom preincubated, observed to 24 h | time to death | > 24 h
Cn1cnc(Cn2c(=O)[nH]/c(=N\c3cc4cn(C)nc4cc3Cl)n(Cc3cc(F)c(F)cc3F)c2=O)n1 | – | – | human, moderate severity, treatment-related TEAE | oral, 375 mg | patients with TEAE | 3.1%
O=C1NCCCOc2cccc(c2)C2c3ccc(cc3CCN2C(=O)c2ccccn2)Oc2ccc(O)c1c2 (stereo not drawn) | Lassa mammarenavirus | viral replication | Huh-7 | concentration not given | Emax | 56.8%
c1cc2c(cc1O[C@H]1OC[C@H]3[C@@H]1CO[C@@H]3c1ccc3c(c1)OCO3)OCO2 | rep main protease | reporter gene (Gaussia luciferase), inhibitor | – | 20 µM | inhibition | -0.407%
Cc1nc2n(n1)CC(=O)N[C@@H](C(C)C)CN(C(=O)c1cc[nH]c1)CC(=O)N[C@@H](CC(C)C)c1nc(cs1)C(=O)N[C@H]2Cc1ccccc1 | Lassa mammarenavirus | viral replication | Huh-7 | 10 µM, 72 h | remaining activity | 87%
CCCCc1ccc(O)cc1O | rep main protease | reporter gene (Gaussia luciferase), inhibitor | – | 20 µM | inhibition | 2.14%
O=C(Nc1cccc(Cl)c1)C1CCCN(Cc2cccc(-c3ccc(F)cc3F)c2)C1 (stereo not drawn) | SARS-CoV-2 | cytopathic effect | USA_WA1/2020 | retest, 8-point, duplicates | efficacy | 0%
Cc1nc2n(n1)CC(=O)N[C@@H](C(C)C)CN(C(=O)c1ccncc1)CC(=O)N[C@@H](CC(C)C)c1nc(cs1)C(=O)N[C@H]2Cc1ccccc1 | Lassa mammarenavirus | viral replication | Huh-7 | 10 µM, 72 h | remaining activity | 100%
COC(=O)[C@H]1[C@H]2C[C@@H]3c4[nH]c5cc(OC)ccc5c4CCN3C[C@H]2C[C@@H](OC(=O)/C=C/c2cc(OC)c(OC)c(OC)c2)[C@@H]1OC | SARS-CoV-2 | viral replication, high-content imaging screen | – | cell-based | EC50 | > 100 µM
O=C(O[C@@H]1Cc2c(O)cc(O)cc2O[C@@H]1c1cc(O)c(O)c(O)c1)c1cc(O)c(O)c(O)c1 | SARS-CoV-2 | viral cytopathic effect | Vero E6 | 3.125 µM | mean inhibition | 0%
CCc1nc(C)c(C(=O)N(CC2COc3ccccc3O2)C(C)C)o1 (stereo not drawn) | Lassa mammarenavirus | viral replication | Huh-7 | 10 µM, 72 h | remaining activity | 59%
CN(C)c1ccc(-c2nc(-c3cccs3)c(-c3cccs3)[nH]2)cc1 | SARS-CoV-2 | cytopathic effect | USA_WA1/2020 | retest, 8-point, duplicates | efficacy | 40.6%

Molecule | tested on | assay | test system | conditions | endpoint | result
CN(C)CCOC(c1ccc(Cl)cc1)c1ccccn1 (stereo not drawn) | Marburg virus | HIV/MARV pseudovirion entry | A549 | 48 h | IC50 | 38.8 ± 12.1 µM
Cc1ccc(Nc2ccnc(N3CCC(C(=O)NCCCc4ccccc4)CC3)n2)cc1 | SARS-CoV-2 | cytopathic effect | USA_WA1/2020 | retest, 8-point, duplicates | efficacy | 62%
O=C1c2c(O)c(=O)ccn2N([C@@H]2c3ccccc3SCc3c2ccc(F)c3F)[C@@H]2COCCN12 | Influenza A virus | viral replication | A(H7N3) | mean | EC50 | 0.00011 ± 3e-05 µM
CN(C)CCC=C1c2ccccc2OCc2c1oc1ccccc21 | SARS-CoV-2 | viral replication, GFP plate reader screen | BetaCov/Belgium/GHB-03021/2020 | cell-based | EC50 | 18.2 µM
CC(C)=CCc1c(O)ccc(C(=O)/C=C/c2ccc(O)cc2)c1O | SARS-CoV-2 | viral replication | Vero E6 | 25 µM | CPE inhibition | 0%
(S)-(+)-niguldipine hydrochloride | Ebola virus | virus-like particle entry | HeLa | concentration not given | maximal inhibition | 92%
CC[C@H](C)[C@H](NC(=O)[C@H](CC(C)C)NC(=O)[C@H](Cc1c[nH]c2ccccc12)NC(=O)[C@H](CCC(N)=O)NC(=O)[C@@H](NC(=O)[C@H](Cc1ccccc1)NC(=O)[C@H](C)NC(=O)[C@H](CCCCNC(=O)COCCOCCNC(=O)COCCOCCNC(=O)CC[C@H](NC(=O)CCCCCCCCCCCCCCCCCCC(=O)O)C(=O)O)NC(=O)[C@H](CCC(N)=O)NC(=O)[C@H](C)NC(=O)[C@@H](NC(=O)[C@H](CCCCN)NC(=O)[C@H](CC(=O)O)NC(=O)[C@H](CC(C)C)NC(=O)C(C)(C)NC(=O)[C@@H](NC(=O)[C@H](CO)NC(=O)[C@H](Cc1ccc(O)cc1)NC(=O)[C@H](CC(=O)O)NC(=O)[C@H](CO)NC(=O)[C@@H](NC(=O)[C@H](Cc1ccccc1)NC(=O)[C@@H](NC(=O)CNC(=O)[C@H](CCC(=O)O)NC(=O)C(C)(C)NC(=O)[C@@H](N)Cc1ccc(O)cc1)[C@@H](C)O)[C@@H](C)O)[C@@H](C)CC)[C@@H](C)CC)C(C)C)C(=O)N[C@@H](C)C(=O)NCC(=O)NCC(=O)N1CCC[C@H]1C(=O)N[C@@H](CO)C(=O)N[C@@H](CO)C(=O)NCC(=O)N[C@@H](C)C(=O)N1CCC[C@H]1C(=O)N1CCC[C@H]1C(=O)N1CCC[C@H]1C(=O)N[C@@H](CO)C(N)=O | – | measured: anti-drug antibodies | patients with type 2 diabetes | 5/5/10/15 mg escalating, baseline, evaluable subjects | subjects ADA-positive at baseline | 41.7%
O=C(CCC1CCCCC1)Nc1ncc(Cc2ccccc2)s1 | Histoplasma capsulatum | microbial growth | – | – | MIC | 1.3 to 2.5 µM (≈ 0.427 to 0.821 µg/mL)
CC(C)=CCC/C(C)=C/Cc1c(O)ccc(C(=O)/C=C/c2ccc(O)cc2)c1O | Chikungunya virus | replicon Gluc reporter | BHK-21 CHIKV replicon Gluc reporter | concentration not given, dose-dependent | antiviral activity | active
COc1ccc2c(c1)N(CCCN(C)C)c1ccccc1S2 | SARS-CoV-2 | viral replication, GFP plate reader screen | – | cell-based | EC50 | > 20 µM
CC(Cc1ccsc1)Nc1ncnc2sccc12 (stereo not drawn) | Lassa mammarenavirus | viral replication | Huh-7 | 10 µM, 72 h | remaining activity | 23%
CCc1c(C(=O)C(N)=O)c2c(OCC(=O)O)cccc2n1Cc1ccccc1 | Daboia russelii | – | mouse | 90 µg, up to 24 h, with: southern venom preincubated | time of death | > 24 h
Cc1nc2n(n1)CC(=O)N[C@@H](C(C)C)CN(C(=O)COC(C)C)CC(=O)N[C@@H](CC(C)C)c1nc(cs1)C(=O)N[C@H]2Cc1ccccc1 | Lassa mammarenavirus | viral replication | Huh-7 | 10 µM, 72 h | remaining activity | 112%
COc1cc(/C=C/C(=O)CC(=O)/C=C/c2ccc(O)c(OC)c2)ccc1O | SARS-CoV-2 | viral replication, GFP plate reader screen | – | cell-based | EC50 | > 100 µM
Cc1ncccc1-c1nc2cc(C(=O)NCCCc3ccccc3)ccc2o1 | SARS-CoV-2 | cytopathic effect | USA_WA1/2020 | round 2, 5-point | efficacy | 45.2%
COc1ccc(C[C@@H]2c3cc(Oc4cc(C[C@@H]5c6cc(O)c(OC)cc6CCN5C)ccc4O)c(OC)cc3CCN2C)cc1 | SARS-CoV-2 | cytopathic effect | Vero E6 | 6.25 µM, replicate run | mean inhibition | 0%
CCCN(CCC)CCNC(=O)c1cc(Sc2ccc(Cl)cc2)nc2ccccc12 | SARS-CoV-2 | cytopathic effect | USA_WA1/2020 | first round 5-point | AC50 | 10 µM
Cc1cnn(CCC(=O)N2CC(=O)N[C@@H](CC(C)C)c3nc(cs3)C(=O)N[C@@H](Cc3ccccc3)c3nc(C)nn3CC(=O)N[C@@H](C(C)C)C2)c1 | Lassa mammarenavirus | viral replication | Huh-7 | 10 µM, 72 h | remaining activity | 93%
CCCCN(C)CCCNC(=O)c1ccc2nc(N3CCCCC3)sc2c1 | SARS-CoV-2 | cytopathic effect, cell-based CPE | USA_WA1/2020 | round 2, 5-point dilution | AC50 | 10 µM
C[C@H](Cc1ccc(O)c(O)c1)[C@@H](C)Cc1ccc(O)c(O)c1 | SARS-CoV-2 | viral replication, GFP plate reader screen | – | cell-based | EC50 | > 100 µM
CN(C)S(=O)(=O)NCC1CCOC2(CCN(C(=O)C3(c4ccccn4)CCCC3)CC2)C1 (stereo not drawn) | Venezuelan equine encephalitis virus | viral replication | – | – | EC50 | > 39.8 µM

A few entries again:
Molecule | tested on | assay | test system | conditions | endpoint | result
Nc1ncnc2c([C@@H]3N[C@H](CO)[C@@H](O)[C@H]3O)c[nH]c12 | Marburg virus | viral replication, antibody staining | HeLa, Musoke | 25 µM, 1 h | infected cells | 0.8%
COc1ccc2c(c1)N(CCCN(C)C)c1ccccc1S2 | SARS-CoV-2 | viral replication, GFP plate reader screen | – | cell-based | EC50 | > 20 µM
O=C(CCC1CCCCC1)Nc1ncc(Cc2ccccc2)s1 | Histoplasma capsulatum | microbial growth | – | – | MIC | 1.3 to 2.5 µM (≈ 0.427 to 0.821 µg/mL)
